Results of several laboratories.
Each numbered part is a random draw from the data of one study; scales do not carry over between parts.

Sample 1
Target: Histone acetyltransferase KAT6A, winged helix 2, GST fusion (KAT6A, Homo sapiens, UniProt Q92794, residues 85-181)
Technique: protein binding microarray
Molecule type: double-stranded DNA, one strand shown
Sample: in vitro
Concentration: not given
Notes: 8-mer, flanks averaged, mean of 2 arrays, mostly near background
Relative to: not given
Direction: higher = stronger binding
Endpoint: E-score
Target sequence (chain): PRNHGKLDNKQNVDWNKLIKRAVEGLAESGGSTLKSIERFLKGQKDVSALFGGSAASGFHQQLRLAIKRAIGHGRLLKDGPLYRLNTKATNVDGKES
Oligonucleotide = ACGGGCAT; value = -0.118
Oligonucleotide = TAGGGCGA; value = 0.00551
Oligonucleotide = GAGGCCGC; value = 0.0842
Oligonucleotide = CATTTAAA; value = 0.19
Oligonucleotide = CAGGCACG; value = 0.0253
Oligonucleotide = CGAGTTCC; value = 0.07
Oligonucleotide = AATCCTAT; value = -0.0865
Oligonucleotide = AACCCAGG; value = 0.0767
Oligonucleotide = CTCCCGAA; value = -0.0213
Oligonucleotide = GGATTCCA; value = 0.00984
Oligonucleotide = CCATGGAG; value = -0.118
Oligonucleotide = GTCGACGA; value = 0.0926
Oligonucleotide = CCTAAAAG; value = -0.182
Oligonucleotide = ACCAGCCT; value = -0.0372
Oligonucleotide = AAACTGTC; value = -0.0725
Oligonucleotide = GGCACGGA; value = 0.0559
Oligonucleotide = CCAGCCCC; value = 0.153
Oligonucleotide = GTGAACCA; value = 0.139
Oligonucleotide = CGACTCCC; value = -0.0557
Oligonucleotide = CACAAGAC; value = -0.0376
Oligonucleotide = ATGCGTAA; value = -0.183
Oligonucleotide = ATATATGC; value = -0.0437
Oligonucleotide = AATGTTGA; value = -0.12
Oligonucleotide = GCGGTAAC; value = 0.0407
Oligonucleotide = CCGCTTGC; value = 0.109

Sample 2
Target: RNA binding protein fox-1 homolog 2, RRM domain, GST-SBP tag (RBFOX2, Homo sapiens, UniProt O43251-10, residues 100-194)
Technique: RNA Bind-n-Seq
Molecule type: RNA
Sample: in vitro
Concentration: 365 nM
Notes: natural RNA segment, single round, ends assumed
Relative to: no-protein control
Direction: higher = stronger binding
Endpoint: RBNS enrichment (R)
Target sequence (chain): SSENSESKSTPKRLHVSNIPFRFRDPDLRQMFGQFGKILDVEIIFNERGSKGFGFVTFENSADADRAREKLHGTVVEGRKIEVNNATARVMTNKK
Oligonucleotide = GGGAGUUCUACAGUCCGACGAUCGAUAACAAGUGGGAAUUUACUCACUGACUUCUCAUUUAUCAUAAAAGCUGCAGCACCUUUAUGUACAGAACAAUGUCACAGUGUGUGUGUGUGUGUGUGUGUGAGCGAGCUGGAAUUCUCGGGUGCCAA; value = 0.42
Oligonucleotide = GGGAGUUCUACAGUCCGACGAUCCUGAGCUUUGGGACACAGGACACUGCCAGGGCUACGUAGGGAACUGACUCAGAAGACGCAGCUUACUGCUUCCAACUUUGCACAUCUUCCUCUUUAAAAAACUGAGAAAAUGGAAUUCUCGGGUGCCAA; value = 0.246
Oligonucleotide = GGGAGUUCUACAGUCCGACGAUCAAAGAUUGAUGAUAGAUGAAUAAACAGAUUUGUGGCCUCUGGUAAAGAAAUCCAGCCAAGUUCCUCUGUCCAAAUUUUUAAGUGCCCUUUGCAAGCUAAUCUAUUUGGCAUGGAAUUCUCGGGUGCCAA; value = 0.739
Oligonucleotide = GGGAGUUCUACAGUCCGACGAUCAAAAAAAAAAAAUUACGUAGGAUUAAUACAGAAAUUUAAUCAUGUCUGAUUAAUUGCUCUAUUAAAAUAAGGGGCAUUUAAAGACCCAGCAUAACCAUUUGUAUAAUGAGUGGAAUUCUCGGGUGCCAA; value = 0.542
Oligonucleotide = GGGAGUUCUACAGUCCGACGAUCUCCCAUCAAGAUGGGUUAGUAGCAGUGUCUGUUUUUGAAUGCCAAGUGUGAUUUCCAACAAUUCUGCUCUGGUUAUUUCAUUGAAGACAUCUUUGCACAUGUGACCAUGCUGGAAUUCUCGGGUGCCAA; value = 0.419
Oligonucleotide = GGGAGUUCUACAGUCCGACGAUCAGAUUAAACCAAUUAUAACUUAUUAGCAGUCGCGAGCACAUGUUCAUAUAGUCAAUGUAAAAAUACACUAAUGAGUAUUUGGUAAAUCCCAGUAGGCUUUUACCAUUAGCUGGAAUUCUCGGGUGCCAA; value = 0.483
Oligonucleotide = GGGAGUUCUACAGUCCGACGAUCCAGAUAUUCUUUCGGGUUUUGUACCUCAAGGUUCCCCUCCCCACAUUGUAAAUACACUUUAAGUGAAUACAGUUUUAGAGAACAAAAGAAAAAAAAAGAAUAAAUAAAGGUGGAAUUCUCGGGUGCCAA; value = 0.638
Oligonucleotide = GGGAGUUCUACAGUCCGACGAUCGUAUUUUGACAAAAUACGAAGUGGAGAUUUACACUACAUUGUACAAGGAAUGAAAGUGUCACGGGUAAAAACUCUAAAAGGUUAAUUUCUGUCAAAUGCAGUAGAUGAUGUGGAAUUCUCGGGUGCCAA; value = 0.487
Oligonucleotide = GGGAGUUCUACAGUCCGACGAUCCUUUAAUUCACUAAUUAAUAGUGACCUGUUGUUAAAUCCAAAUCCACUUUGCUGAAAAAUACUGUACAUGUGUAAAAUGUUCAGUUGUUUUUUUGUAAAAUAUAGAACAGUGGAAUUCUCGGGUGCCAA; value = 0.397
Oligonucleotide = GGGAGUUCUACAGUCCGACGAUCAUCUAAAUCCAGGUCAGGCAUGGGAUAUCAGUAUUUAACAUUGGAUGUUUUAUGUUUUAUAUUUAUAAUGUUCAAAAUGCAAGCAUAACAUUUAAUAUUUGUCCACAUGGUGGAAUUCUCGGGUGCCAA; value = 8.12
Oligonucleotide = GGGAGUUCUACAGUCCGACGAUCAGCAAUAUGUUUCCUUCUCUGUAACAGUGUCCUAACAGUGAAAAUCAGAGUUAUUUGUUAAUUUUUAAGGAAAUUAUAUACUUAAUAUGUAUUGAUUAAAAGAAACAUUUUGGAAUUCUCGGGUGCCAA; value = 0.551
Oligonucleotide = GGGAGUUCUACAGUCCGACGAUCCCAAGACAUCUCUGACAGAAGUGUUUUUGUUUGGUUUUGUUUUUUAAGAUUAUGUAUUUGCUACAAAGUAUUGUACUUGUCUCAAUGGGAAUGGUGUUAAAAAAGAAAAAUGGAAUUCUCGGGUGCCAA; value = 0.396

Sample 3
Target: Eukaryotic initiation factor 4A-I (EIF4A1, Homo sapiens, UniProt P60842, residues 1-406, full length assumed)
Sequence of UniProt P60842 (whole entry, looked up): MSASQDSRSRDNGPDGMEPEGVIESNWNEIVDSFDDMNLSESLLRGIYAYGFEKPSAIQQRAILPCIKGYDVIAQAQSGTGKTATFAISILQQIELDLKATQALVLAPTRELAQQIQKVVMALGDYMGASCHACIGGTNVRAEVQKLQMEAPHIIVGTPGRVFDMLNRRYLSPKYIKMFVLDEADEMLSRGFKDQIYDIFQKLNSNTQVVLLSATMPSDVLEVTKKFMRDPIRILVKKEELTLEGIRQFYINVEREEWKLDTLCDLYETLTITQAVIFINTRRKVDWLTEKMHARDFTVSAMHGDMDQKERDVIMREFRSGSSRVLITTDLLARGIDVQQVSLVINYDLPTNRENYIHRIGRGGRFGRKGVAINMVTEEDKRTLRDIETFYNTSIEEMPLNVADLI
Technique: RNA Bind-n-Seq
Molecule type: RNA
Sample: in vitro
Concentration: 15 pmol
Notes: 4-mer, random 30-nt RNA, single round
With: DMSO vehicle, 2 mM AMP-PNP
Relative to: input library
Direction: higher = stronger binding
Endpoint: 4-mer enrichment
Oligonucleotide = ACGU; value = 0.88 fold
Oligonucleotide = CUUA; value = 0.85 fold
Oligonucleotide = CUUU; value = 0.829 fold
Oligonucleotide = CAUU; value = 0.988 fold
Oligonucleotide = CGGC; value = 1.58 fold
Oligonucleotide = UGUU; value = 0.814 fold
Oligonucleotide = CGUU; value = 0.923 fold
Oligonucleotide = UUAA; value = 0.94 fold
Oligonucleotide = UCGC; value = 0.802 fold
Oligonucleotide = AGCC; value = 1.26 fold
Oligonucleotide = AGCU; value = 0.944 fold
Oligonucleotide = GUGU; value = 0.801 fold
Oligonucleotide = UUCU; value = 1.06 fold
Oligonucleotide = CCAC; value = 1.76 fold
Oligonucleotide = UGGC; value = 1.01 fold

Sample 4
Target: Sal-like protein 4, full length isoform A (SALL4, Homo sapiens, UniProt Q9UJQ4, residues 1-1053)
Sequence of UniProt Q9UJQ4 (whole entry, looked up): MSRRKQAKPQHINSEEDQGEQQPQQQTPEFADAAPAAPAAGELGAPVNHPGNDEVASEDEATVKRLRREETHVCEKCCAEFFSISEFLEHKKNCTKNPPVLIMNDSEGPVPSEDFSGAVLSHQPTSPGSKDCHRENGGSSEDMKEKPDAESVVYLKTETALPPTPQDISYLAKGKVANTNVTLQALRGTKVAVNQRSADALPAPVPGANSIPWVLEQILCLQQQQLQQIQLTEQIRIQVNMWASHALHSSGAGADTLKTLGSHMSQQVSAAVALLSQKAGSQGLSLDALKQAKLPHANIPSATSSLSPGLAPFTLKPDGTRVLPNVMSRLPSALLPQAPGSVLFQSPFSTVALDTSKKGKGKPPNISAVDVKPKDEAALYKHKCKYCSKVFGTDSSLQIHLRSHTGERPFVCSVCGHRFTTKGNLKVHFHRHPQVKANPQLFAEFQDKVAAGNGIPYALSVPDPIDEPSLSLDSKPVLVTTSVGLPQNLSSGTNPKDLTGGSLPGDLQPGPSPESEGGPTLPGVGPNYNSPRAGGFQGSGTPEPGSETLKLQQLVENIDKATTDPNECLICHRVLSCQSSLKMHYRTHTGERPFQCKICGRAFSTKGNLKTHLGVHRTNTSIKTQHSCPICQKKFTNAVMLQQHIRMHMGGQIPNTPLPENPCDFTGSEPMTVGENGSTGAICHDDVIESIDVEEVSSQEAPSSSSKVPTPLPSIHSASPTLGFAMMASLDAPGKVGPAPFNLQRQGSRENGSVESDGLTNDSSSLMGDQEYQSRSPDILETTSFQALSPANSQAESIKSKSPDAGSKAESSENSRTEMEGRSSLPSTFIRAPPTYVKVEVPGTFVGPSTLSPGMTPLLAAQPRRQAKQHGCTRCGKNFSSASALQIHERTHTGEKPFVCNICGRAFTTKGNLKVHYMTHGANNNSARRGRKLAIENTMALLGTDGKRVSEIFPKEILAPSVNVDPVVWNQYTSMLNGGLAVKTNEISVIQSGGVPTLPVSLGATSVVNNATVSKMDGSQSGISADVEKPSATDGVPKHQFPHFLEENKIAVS
Technique: universal PBM
Molecule type: double-stranded DNA, one strand shown
Sample: in vitro
Concentration: 600 nM
Notes: 8-mer, flanks averaged, mean of replicates
Direction: higher = stronger binding
Endpoint: E-score
Oligonucleotide = GCAGCGCC; value = -0.269
Oligonucleotide = GCGGTGAC; value = -0.175
Oligonucleotide = AGGCGGGC; value = -0.279
Oligonucleotide = ACCGATCT; value = -0.208
Oligonucleotide = CTCCTGCC; value = -0.131
Oligonucleotide = GCCTCCCC; value = -0.185
Oligonucleotide = AGATAATA; value = 0.341
Oligonucleotide = GGGGCATA; value = -0.0142
Oligonucleotide = GCAGTTTA; value = 0.0573
Oligonucleotide = CACGGAAA; value = 0.006
Oligonucleotide = GGCTGTTA; value = 0.0765
Oligonucleotide = CTAGCGAG; value = -0.315
Oligonucleotide = CACTACCC; value = -0.23
Oligonucleotide = ATAGCGTG; value = 0.0662
Oligonucleotide = AGATCCAT; value = -0.0282
Oligonucleotide = ACTCTGAT; value = 0.0512
Oligonucleotide = ATATACGC; value = 0.168
